# Results of several laboratories.
# A part holds a random share of what one study measured. Substitutions count along the parent as printed.
# Sequence of UniProt O15294 (whole entry, looked up): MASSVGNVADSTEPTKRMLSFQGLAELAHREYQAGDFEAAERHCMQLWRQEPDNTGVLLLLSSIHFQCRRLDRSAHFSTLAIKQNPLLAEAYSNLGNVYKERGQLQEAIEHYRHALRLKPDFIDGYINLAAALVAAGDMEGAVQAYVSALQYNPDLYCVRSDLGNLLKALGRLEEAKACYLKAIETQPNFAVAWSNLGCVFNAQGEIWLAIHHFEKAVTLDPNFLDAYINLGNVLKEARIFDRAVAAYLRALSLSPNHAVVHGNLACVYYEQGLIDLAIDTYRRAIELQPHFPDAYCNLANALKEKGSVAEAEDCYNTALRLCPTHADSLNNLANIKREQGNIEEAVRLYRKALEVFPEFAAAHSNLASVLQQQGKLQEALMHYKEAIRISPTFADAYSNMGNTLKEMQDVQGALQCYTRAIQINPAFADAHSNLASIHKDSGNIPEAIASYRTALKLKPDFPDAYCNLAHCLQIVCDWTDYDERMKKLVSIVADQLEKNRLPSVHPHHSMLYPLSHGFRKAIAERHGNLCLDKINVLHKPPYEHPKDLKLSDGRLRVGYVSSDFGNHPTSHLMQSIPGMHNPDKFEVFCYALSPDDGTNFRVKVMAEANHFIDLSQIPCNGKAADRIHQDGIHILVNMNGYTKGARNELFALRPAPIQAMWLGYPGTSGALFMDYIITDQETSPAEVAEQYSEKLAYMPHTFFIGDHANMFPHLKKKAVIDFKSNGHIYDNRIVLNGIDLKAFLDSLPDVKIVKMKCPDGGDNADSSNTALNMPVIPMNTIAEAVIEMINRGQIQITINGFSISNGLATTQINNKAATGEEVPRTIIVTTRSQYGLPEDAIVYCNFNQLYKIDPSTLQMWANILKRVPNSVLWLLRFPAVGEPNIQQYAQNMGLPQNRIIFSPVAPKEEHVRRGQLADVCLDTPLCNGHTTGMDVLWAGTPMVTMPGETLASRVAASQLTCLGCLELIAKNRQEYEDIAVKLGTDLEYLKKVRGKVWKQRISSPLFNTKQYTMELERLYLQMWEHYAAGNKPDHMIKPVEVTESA

# Study 1
# Target: CCNE2, cyclin fold, Cln2 fusion (human)
# Technique: yeast growth competition, sequencing
# Medium: yeast
# Setting: strong parent motif
# Baseline: not given
# Reading: higher = stronger binding
# Parent: BRCA2 docking peptide (human); PSIKRNLLNEFDR; partner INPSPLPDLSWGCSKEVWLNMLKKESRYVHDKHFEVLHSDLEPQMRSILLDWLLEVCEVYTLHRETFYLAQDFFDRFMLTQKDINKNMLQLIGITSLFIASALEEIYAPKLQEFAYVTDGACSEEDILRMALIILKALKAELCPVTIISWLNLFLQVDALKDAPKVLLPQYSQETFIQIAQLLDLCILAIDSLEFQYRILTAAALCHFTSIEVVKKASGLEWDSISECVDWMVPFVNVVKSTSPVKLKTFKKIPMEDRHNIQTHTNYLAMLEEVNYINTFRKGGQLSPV
Variant,normalised enrichment score
PSIKRNLLHEFDR [N9H],2.34
PSIKRNLMNEFDR [L8M],2.75
PSIKRNLLNEFVR [D12V],1.86
PSIKRNLLNEFYR [D12Y],2.04
PSIKRNLLNERDR [F11R],0.768
PKIKRNLLNEFDR [S2K],1.37
PSIKRNLVNEFDR [L8V],1.23
PSIKRNLLNQFDR [E10Q],0.759

# Study 2
# Target: RING finger protein unkempt homolog, zinc fingers 1-6, GST-SBP tag (UNK, Homo sapiens, UniProt Q9C0B0, residues 30-357)
# Sequence of UniProt Q9C0B0 (30-357, looked up): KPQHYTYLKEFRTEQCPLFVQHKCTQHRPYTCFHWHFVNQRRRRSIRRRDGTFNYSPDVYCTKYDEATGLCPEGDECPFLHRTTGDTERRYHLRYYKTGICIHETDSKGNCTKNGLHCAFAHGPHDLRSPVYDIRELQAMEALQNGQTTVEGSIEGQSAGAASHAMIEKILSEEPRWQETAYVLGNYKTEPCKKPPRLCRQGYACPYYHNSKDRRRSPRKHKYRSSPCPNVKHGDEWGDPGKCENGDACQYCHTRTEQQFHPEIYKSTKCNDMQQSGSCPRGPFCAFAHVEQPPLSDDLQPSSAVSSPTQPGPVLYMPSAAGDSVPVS
# Technique: RNA Bind-n-Seq
# Molecule type: RNA
# Medium: in vitro
# Concentration: not given
# Setting: RNA with constant flanks, human and mouse sites, ends assumed
# Baseline: input RNA pool
# Reading: higher = stronger binding
# All sequences stand within: GGGAGUUCUACAGUCCGACGAUC … CAACAGAGGAUUGAGCAUCA
Oligonucleotide,bound/input enrichment [ratio]
UGAAUAUGAUACUUCUUUAUUCACAGUAUCUGUGUCUCCUGCACCCUUUGGUGUUGCAAUUUUAGGUAUGUGAAAGUAGAUGUUAGCAGGGUUCUCUCCCUAUUUAAAAAUAAAUUUUAA,10.3
GAAAUGAAGUACUACAUAGUGCAUUUGAAACGCCACUUUAUGUUUCGAAACCAUCUCUGUUUAGUGUUUGAAAUGCUGUCCUAUAAUCUCUAUGAUUUGUUGAGAAACACCAACUUCCGA,0.296
GCCUUAGGUUGGGGGAUACUGUCAGGGGGAGAUUCCCUCUGUGUCUUUUCCUGAGUUGGAGCCACUUUUCAUUUCUGCACAGCCUCAAAGGUGGACAAGGUAAUAAAUAGCUUUGGAAAA,0.277
CUGAAGUCAGGAAUGUCUCCUGAGCAGAGUAAGACUAAACCUGACUCUAGCAUAUAUCCUUUAGUAGACUCUAAAUCUUUUCUGGUGCAGAGCAGAUUGGAGCCUUCUGAAUUAAAAGAG,0.215
AGAGUGCUGGGAUUAAAGCAGAUAUAAUUUCUACAGUAGAGUUUAAUCAUUCUGGAGAAUUACUAGCCACAGGAGAUAAAGGUGGGAGAGUUGUCAUCUUUCAACAAGAGCAGGAGAACA,0.475
AAGUUGAAAGAAAGGUCAAAGGCAUCUGGAGAUGAAAAUGAUAAUAUUGAGAUAGAUACUAACGAAGAGAUUCCUGAAGGCUUUGUUGUAGGAGGUGGAGAUGAACUUACUAAUAUAGAA,2.12
UCUGCUCGGAAGAUGCGUCUGGGAGAUGCUGUUGAACAGGGUGUGAUUAACAACUCAGUAUUAGGCUAUUUUAUUGGCCGCAUCUACCUCUACCUCACGAAGGUUGGAAUAUCUCCUGAU,0.345
UGGAUGUACACGUUCUCACGAGCUGCGAUUCUCCUUAGCAUUGUAUACUUCUAUUCUUCUUUUAGUCGGUUUAUCAUGGUAAUGGGAGCCAUGCUACUGGUUUAUUUACACCAAGCUGGA,1.55

# Single results of other studies
Substance,target or system,test,system,setting,scale,endpoint,result
"ARHGEF11 (Homo sapiens, UniProt O15085)","TRDN (Homo sapiens, UniProt Q13061)",cross-linking MS,cell fractions,added: DMTMM,,cross-linked residues,E529 to K336
HQMHAHQLHRPSTKF,"OGT (Homo sapiens, UniProt O15294)","binding, phage display NGS",peptide,,baseline: input library,minimum log2 enrichment ratio,3.79
"NUP43 (Homo sapiens, UniProt Q8NFH3)","SEH1L (Homo sapiens, UniProt Q96EE3)",cross-linking MS,,hits only,,interaction screen,cross-linked
"SNX2 (Homo sapiens, UniProt O60749)","SNX6 (Homo sapiens, UniProt Q9UNH7)",cross-linking MS,,hits only,,interaction screen,cross-linked
"NDUFS2 (Homo sapiens, UniProt O75306)","NDUFA7 (Homo sapiens, UniProt O95182)",cross-linking MS,cell fractions,added: DSSO,,cross-linked residues,K367 to K40

# Repeated from above (study 2):
Oligonucleotide,bound/input enrichment [ratio]
UCUGCUCGGAAGAUGCGUCUGGGAGAUGCUGUUGAACAGGGUGUGAUUAACAACUCAGUAUUAGGCUAUUUUAUUGGCCGCAUCUACCUCUACCUCACGAAGGUUGGAAUAUCUCCUGAU,0.345
AAGUUGAAAGAAAGGUCAAAGGCAUCUGGAGAUGAAAAUGAUAAUAUUGAGAUAGAUACUAACGAAGAGAUUCCUGAAGGCUUUGUUGUAGGAGGUGGAGAUGAACUUACUAAUAUAGAA,2.12
